Measured values from different studies.
Numbered parts are unrelated; each lists some results of a single study. Changes are numbered by the printed parent chain.

Block 1 — technique: protein-binding microarray; form: double-stranded DNA, one strand shown; sample: in vitro; tested at: not given; direction: higher = stronger binding; endpoint: E-score
Target: Max dimerization protein 1, bHLH-zipper, MAX partner unstated (MXD1, Homo sapiens, UniProt Q05195, residues 56-136)
Setting: k-mer, scored over probes, only values ≥0.25
Residues (chain): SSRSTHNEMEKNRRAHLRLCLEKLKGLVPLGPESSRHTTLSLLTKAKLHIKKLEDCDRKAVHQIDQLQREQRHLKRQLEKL
ACGCGCAT: 0.321
CAACACGA: 0.282
CAGCGTGG: 0.389
GTGTGCGA: 0.281
GCACGAGA: 0.331
AACGAGGA: 0.273
AGGACATG: 0.272

Block 2 — technique: DHFR PCA, deep sequencing; sample: yeast; together with: (+)-ABA 58 µM; reference: wild-type fitted maximum; direction: higher = stronger binding; endpoint: relative binding score
Target: ABI1, truncated, D143A, DHFR fusion (Arabidopsis thaliana)
Setting: methotrexate growth selection, single substitutions
Starting sequence: PYL1, truncated, DHFR fusion (Arabidopsis thaliana); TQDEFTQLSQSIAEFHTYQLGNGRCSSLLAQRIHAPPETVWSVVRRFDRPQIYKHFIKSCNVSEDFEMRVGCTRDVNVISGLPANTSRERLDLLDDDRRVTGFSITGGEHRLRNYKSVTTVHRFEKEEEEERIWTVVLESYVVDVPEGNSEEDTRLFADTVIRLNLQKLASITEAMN; partner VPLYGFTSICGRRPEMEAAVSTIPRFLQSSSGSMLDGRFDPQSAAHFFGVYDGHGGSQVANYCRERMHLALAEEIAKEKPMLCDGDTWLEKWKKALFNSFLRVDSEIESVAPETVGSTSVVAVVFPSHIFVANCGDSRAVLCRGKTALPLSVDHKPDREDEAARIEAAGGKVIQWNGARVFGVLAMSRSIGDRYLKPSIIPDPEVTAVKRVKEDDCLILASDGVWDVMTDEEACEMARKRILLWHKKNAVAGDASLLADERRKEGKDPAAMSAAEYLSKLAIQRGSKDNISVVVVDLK
R45N: 22.2%
E139I: 68.4%
H34V: 74.5%
V137I: 69.1%
S11Y: 73%
F56Q: 3.61%
L156H: 75.3%

Block 3 — target: CCND2, cyclin fold, Cln2 fusion (human); technique: yeast growth competition, sequencing; sample: yeast; setting: weak parent motif; reference: not given; direction: higher = stronger binding; endpoint: normalised enrichment score
Starting sequence: PKMYT1 docking peptide (human); SFEPRNLLSLFED
SFEPRNLLSLSED [F11S]: 0.154
SFEPRNLLSLFVD [E12V]: 0.408
SFEPRNCLSLFED [L7C]: 0.344
SFEIRNLLSLFED [P4I]: -0.381
SFEPRNLLSLFEH [D13H]: -0.611
SFEPRNLLSFFED [L10F]: -0.125
SFEPRNALSLFED [L7A]: 0.162
SFEPRNLLSLGED [F11G]: 0.104
SFEPTNLLSLFED [R5T]: 0.173

Further values, each from its own experiment
PhoQ, residues 284 288 289 292 302 303 MLMVEA
fold induction (PhoP, residues 12 14 15 18 19 LHSVW (Escherichia coli, UniProt P23836); Sort-seq, refers to: YFP reporter; E. coli; PhoQ-PhoP variant library, together with: 10 µM Mg2+; reference: high Mg2+ state, higher = stronger signaling): 3.63

Repeated from above (block 3):
SFEPRNLLSLFEH [D13H]: -0.611
SFEPRNLLSLFVD [E12V]: 0.408
